Results collected from several papers.
Parts stem from different laboratories: compare values within a part only.
Chain of UniProt P50750 (whole entry, looked up): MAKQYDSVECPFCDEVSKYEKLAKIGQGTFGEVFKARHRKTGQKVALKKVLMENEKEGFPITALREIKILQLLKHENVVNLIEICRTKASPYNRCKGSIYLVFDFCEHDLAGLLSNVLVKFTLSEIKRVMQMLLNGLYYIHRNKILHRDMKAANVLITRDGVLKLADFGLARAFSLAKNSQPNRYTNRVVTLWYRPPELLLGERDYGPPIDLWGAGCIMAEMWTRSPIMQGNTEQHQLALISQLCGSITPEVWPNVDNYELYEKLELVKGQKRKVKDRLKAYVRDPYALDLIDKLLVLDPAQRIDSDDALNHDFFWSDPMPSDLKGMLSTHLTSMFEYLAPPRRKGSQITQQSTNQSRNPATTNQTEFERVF
Chain of UniProt Q9NRH2 (whole entry, looked up): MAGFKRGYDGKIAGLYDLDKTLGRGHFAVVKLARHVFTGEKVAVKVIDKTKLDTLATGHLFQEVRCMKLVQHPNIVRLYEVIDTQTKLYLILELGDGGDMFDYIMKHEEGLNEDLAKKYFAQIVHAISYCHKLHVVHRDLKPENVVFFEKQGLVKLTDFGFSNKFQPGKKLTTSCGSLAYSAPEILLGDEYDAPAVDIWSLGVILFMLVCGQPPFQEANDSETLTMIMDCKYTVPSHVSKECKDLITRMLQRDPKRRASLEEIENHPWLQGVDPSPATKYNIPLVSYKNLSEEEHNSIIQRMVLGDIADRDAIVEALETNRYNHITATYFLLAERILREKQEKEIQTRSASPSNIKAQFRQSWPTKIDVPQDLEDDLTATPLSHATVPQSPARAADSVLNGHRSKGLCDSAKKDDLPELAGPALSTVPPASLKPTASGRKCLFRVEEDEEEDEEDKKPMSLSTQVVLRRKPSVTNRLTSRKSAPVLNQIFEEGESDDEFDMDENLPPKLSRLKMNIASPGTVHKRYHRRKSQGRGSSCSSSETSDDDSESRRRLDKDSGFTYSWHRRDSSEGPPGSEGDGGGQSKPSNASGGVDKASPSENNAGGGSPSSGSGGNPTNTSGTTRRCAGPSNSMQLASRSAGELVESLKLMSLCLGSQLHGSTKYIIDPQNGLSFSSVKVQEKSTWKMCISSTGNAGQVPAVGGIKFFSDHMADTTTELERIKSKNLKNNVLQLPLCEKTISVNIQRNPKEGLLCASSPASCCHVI
Chain of UniProt Q9UEE5 (whole entry, looked up): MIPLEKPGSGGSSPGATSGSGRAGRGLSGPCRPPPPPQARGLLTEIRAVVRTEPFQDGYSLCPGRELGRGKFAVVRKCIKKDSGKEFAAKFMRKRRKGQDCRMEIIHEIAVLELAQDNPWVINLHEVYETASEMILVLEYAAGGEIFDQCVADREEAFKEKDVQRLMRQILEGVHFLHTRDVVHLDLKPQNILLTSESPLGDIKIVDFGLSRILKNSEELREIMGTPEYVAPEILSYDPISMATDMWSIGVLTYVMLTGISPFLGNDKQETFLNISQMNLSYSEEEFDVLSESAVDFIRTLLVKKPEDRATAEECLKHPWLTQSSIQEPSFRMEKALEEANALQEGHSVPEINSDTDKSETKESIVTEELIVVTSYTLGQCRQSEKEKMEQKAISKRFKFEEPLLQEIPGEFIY

Set 1 — read-out: cell-free assay; technique: competition with immobilised ligand; tested at: 0.1 µM
SMILES: CS(=O)(=O)N1CCCC(NC(=O)[C@H](CCC2CCCCC2)NC(=O)c2ccc(CNC(=O)c3cnc4ccccn34)cc2)C1 (some centres unmarked)
target	remaining binding [%]
Mitogen-activated protein kinase kinase kinase kinase 5 (MAP4K5, Homo sapiens, UniProt Q9Y4K4)	100
Protein kinase C epsilon type (PRKCE, Homo sapiens, UniProt Q02156)	83
Protein-tyrosine kinase 2-beta (PTK2B, Homo sapiens, UniProt Q14289)	100
BMP-2-inducible protein kinase (BMP2K, Homo sapiens, UniProt Q9NSY1)	92
Leukocyte tyrosine kinase receptor (LTK, Homo sapiens, UniProt P29376)	100
Cyclin-dependent kinase 9 (CDK9, Homo sapiens, UniProt P50750)	100
Ribosomal protein S6 kinase alpha-2, N-terminal kinase domain (RPS6KA2, Homo sapiens, UniProt Q15349)	80
cAMP-dependent protein kinase catalytic subunit beta (PRKACB, Homo sapiens, UniProt P22694)	100
Tyrosine-protein kinase ABL1, phosphorylated (ABL1, Homo sapiens, UniProt P00519, F317L)	100
Serine/threonine-protein kinase SBK1 (SBK1, Homo sapiens, UniProt Q52WX2)	77
RAC-beta serine/threonine-protein kinase (AKT2, Homo sapiens, UniProt P31751)	93
Mitogen-activated protein kinase kinase kinase 20 (MAP3K20, Homo sapiens, UniProt Q9NYL2)	79
Mitogen-activated protein kinase kinase kinase 10 (MAP3K10, Homo sapiens, UniProt Q02779)	100
Phosphorylase b kinase gamma catalytic chain, skeletal muscle/heart isoform (PHKG1, Homo sapiens, UniProt Q16816)	68
SNF-related serine/threonine-protein kinase (SNRK, Homo sapiens, UniProt Q9NRH2)	69
Serine/threonine-protein kinase Sgk1 (SGK1, Homo sapiens, UniProt O00141)	100
Serine/threonine-protein kinase 36 (STK36, Homo sapiens, UniProt Q9NRP7)	100
Serine/threonine-protein kinase 17A (STK17A, Homo sapiens, UniProt Q9UEE5)	100
Epidermal growth factor receptor (EGFR, Homo sapiens, UniProt P00533, del752-759)	100
Serine/threonine-protein kinase DCLK1 (DCLK1, Homo sapiens, UniProt O15075)	99
Serine/threonine-protein kinase MARK1 (MARK1, Homo sapiens, UniProt Q9P0L2)	100
Ephrin type-B receptor 4 (EPHB4, Homo sapiens, UniProt P54760)	97

Set 2 — read-out: enzyme activity; mode: inhibitor; tested at: 77 µM; baseline: untreated
Target: DNA polymerase theta, ATPase domain (POLQ, Homo sapiens, UniProt O75417)
Chain of UniProt O75417 (whole entry, unmodified, looked up): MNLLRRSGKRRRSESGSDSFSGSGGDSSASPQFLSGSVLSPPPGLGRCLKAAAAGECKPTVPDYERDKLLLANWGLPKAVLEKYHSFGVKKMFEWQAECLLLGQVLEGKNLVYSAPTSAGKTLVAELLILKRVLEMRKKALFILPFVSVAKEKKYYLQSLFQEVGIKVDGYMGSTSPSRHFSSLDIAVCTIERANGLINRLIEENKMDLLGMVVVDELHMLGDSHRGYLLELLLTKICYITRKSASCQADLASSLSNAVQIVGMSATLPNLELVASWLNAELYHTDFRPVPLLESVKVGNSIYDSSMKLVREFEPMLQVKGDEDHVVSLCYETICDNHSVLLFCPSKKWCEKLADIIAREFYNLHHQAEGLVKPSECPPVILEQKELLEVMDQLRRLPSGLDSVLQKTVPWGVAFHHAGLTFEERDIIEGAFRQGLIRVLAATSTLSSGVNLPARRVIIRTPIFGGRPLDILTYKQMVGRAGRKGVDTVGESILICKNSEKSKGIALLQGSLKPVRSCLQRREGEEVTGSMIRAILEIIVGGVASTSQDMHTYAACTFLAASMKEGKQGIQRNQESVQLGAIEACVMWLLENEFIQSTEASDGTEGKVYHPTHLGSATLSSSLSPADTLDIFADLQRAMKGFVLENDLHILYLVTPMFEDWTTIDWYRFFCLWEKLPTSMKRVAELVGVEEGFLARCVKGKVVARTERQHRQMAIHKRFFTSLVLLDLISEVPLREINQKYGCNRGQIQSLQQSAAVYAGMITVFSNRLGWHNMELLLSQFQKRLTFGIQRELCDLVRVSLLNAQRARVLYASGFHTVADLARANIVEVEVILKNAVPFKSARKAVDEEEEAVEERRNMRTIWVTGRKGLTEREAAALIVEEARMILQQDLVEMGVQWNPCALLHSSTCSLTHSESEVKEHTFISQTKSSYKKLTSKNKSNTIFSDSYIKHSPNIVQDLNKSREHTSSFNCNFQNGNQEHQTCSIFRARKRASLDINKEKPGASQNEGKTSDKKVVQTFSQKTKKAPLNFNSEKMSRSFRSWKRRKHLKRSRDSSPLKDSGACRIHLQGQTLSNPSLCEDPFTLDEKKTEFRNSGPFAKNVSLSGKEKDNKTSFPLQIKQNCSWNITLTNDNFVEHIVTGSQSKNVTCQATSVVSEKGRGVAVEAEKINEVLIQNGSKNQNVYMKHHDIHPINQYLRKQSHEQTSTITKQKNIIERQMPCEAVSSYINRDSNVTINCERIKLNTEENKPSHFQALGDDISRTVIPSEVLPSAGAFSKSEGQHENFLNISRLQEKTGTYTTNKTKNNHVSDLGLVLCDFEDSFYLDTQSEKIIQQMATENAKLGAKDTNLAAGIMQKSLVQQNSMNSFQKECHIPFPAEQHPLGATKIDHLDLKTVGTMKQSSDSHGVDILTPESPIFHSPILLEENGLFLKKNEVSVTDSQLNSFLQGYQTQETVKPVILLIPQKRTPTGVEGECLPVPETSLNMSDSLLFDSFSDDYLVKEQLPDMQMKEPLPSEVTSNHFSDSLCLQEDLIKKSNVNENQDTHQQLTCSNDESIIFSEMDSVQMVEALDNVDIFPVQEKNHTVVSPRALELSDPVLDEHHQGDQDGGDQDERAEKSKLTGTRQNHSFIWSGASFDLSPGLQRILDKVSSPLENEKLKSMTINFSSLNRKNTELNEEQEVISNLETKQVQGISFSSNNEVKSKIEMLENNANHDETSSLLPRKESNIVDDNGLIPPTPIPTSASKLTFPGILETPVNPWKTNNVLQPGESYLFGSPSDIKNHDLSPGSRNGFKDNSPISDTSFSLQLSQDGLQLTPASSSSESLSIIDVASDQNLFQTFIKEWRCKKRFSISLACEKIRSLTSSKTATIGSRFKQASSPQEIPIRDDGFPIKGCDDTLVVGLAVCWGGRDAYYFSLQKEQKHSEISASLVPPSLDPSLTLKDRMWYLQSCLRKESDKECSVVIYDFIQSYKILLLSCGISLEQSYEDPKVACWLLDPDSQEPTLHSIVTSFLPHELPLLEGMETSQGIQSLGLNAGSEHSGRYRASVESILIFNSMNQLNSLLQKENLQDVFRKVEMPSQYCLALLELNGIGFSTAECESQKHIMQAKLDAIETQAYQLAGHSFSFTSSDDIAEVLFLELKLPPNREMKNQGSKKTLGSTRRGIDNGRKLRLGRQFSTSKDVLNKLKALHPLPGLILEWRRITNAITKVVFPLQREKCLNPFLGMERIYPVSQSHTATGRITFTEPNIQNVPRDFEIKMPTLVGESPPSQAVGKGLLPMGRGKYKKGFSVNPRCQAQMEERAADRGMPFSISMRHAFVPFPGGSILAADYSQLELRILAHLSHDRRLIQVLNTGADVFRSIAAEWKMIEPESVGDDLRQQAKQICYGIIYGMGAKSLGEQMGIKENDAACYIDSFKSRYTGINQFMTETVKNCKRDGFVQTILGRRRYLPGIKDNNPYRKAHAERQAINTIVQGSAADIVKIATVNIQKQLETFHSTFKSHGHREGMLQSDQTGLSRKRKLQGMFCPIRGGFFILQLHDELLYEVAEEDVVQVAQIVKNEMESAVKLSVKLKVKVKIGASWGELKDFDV
Compound	remaining activity [%]
CCOc1cc(N2CCC(O)CC2)ccc1Nc1ncc2c(n1)N(C)c1ccccc1C(=O)N2C	103
NC(N)=NCCNS(=O)(=O)c1cccc2cnccc12	114
NC(N)=NC(N)=Nc1cccc(Cl)c1	100
c1coc(CNc2ncnc3[nH]cnc23)c1	102
CC(N)=NCCCC[C@@H](N)C(=O)O	98.2

Set 3 — host: mouse; medium: microsomes or S9; tested at: 2 µM; time: 0.5 h
SMILES	remaining compound
C[S+]([O-])c1sc(Br)c2c1C(=O)CC(C)(C)C2 (centres unmarked)	7.74%
CCc1ccc(N2C(=O)CN(S(C)(=O)=O)CC2(C)C(=O)NCc2ccc(F)cc2)cc1 (centres unmarked)	6.87%
COC(=O)NC12CCCC(C1)c1ccc(=O)[nH]c1C2 (centres unmarked)	> 99.9%
COc1cc(=O)[nH]cc1C(=O)N1CCN(C)c2ncccc2C1	88.1%
CC(C)(C)C(=O)c1sc2c(c1N)c(=O)[nH]c(=O)n2C1CCCCC1	41.8%
CCN(Cc1nc(-c2cccs2)no1)C(=O)C(C)Oc1cc(C)c(Cl)c(C)c1 (centres unmarked)	< 1%
CCC1=NOC(c2nc3sc(CC)cc3c(=O)[nH]2)C1 (centres unmarked)	23.3%
Cc1cc(=O)c(C(=O)Nc2nc3ccccc3nc2N2CCCC2)nn1-c1ccc(Cl)cc1	51%
COc1cc(=O)n(C)cc1C(=O)NCc1csc2ncnn12	87.9%

Set 4 — Compound: C=CCc1ccc(O)c(-c2ccc(O)c(CC=C)c2)c1; read-out: chloride current
ANO1 del476-501: Anoctamin-1 (ANO1, Homo sapiens, UniProt Q5XXA6, del476-501)
Chain of UniProt Q5XXA6 (whole entry, unmodified, looked up): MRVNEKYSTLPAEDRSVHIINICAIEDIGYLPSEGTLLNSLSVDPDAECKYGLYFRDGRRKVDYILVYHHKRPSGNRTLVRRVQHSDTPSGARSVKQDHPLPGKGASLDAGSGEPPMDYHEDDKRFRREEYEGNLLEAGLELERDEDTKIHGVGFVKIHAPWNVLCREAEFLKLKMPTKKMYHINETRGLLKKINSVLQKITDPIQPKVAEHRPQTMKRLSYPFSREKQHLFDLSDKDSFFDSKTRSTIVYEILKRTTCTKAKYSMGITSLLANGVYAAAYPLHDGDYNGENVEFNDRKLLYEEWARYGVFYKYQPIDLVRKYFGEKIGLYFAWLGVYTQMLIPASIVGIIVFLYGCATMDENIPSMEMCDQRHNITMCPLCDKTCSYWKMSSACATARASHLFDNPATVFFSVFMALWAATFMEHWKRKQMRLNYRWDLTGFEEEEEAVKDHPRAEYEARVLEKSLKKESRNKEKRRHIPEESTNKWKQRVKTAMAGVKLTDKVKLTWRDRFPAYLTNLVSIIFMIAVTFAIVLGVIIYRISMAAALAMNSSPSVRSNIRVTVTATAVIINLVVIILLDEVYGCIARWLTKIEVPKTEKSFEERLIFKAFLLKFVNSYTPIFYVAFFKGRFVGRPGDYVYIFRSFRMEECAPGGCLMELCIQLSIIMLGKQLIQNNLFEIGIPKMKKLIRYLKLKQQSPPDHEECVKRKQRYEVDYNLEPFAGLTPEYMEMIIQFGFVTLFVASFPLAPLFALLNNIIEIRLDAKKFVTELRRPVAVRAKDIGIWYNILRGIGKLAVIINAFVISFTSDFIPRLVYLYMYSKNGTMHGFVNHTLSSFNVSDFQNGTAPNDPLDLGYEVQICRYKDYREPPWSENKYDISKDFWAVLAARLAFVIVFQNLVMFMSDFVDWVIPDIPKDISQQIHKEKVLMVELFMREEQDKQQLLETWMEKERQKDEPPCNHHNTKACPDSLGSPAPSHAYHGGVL
target	test	conditions	normalized current
Anoctamin-1 (ANO1, Homo sapiens, UniProt Q5XXA6, del476-501/F628A)	whole-cell voltage clamp	1 µM, I-V at -40 mV, together with: 4 µM Ca2+	-0.291
ANO1 del476-501	whole-cell voltage clamp	1 µM, wild type, I-V at 0 mV, together with: 4 µM Ca2+	-0.0021
ANO1 del476-501	whole-cell voltage clamp	3 µM, wild type, concentration-response at 80 mV, together with: 4 µM Ca2+	0.595
Anoctamin-1 (ANO1, Homo sapiens, UniProt Q5XXA6, del476-501/E659A/K629A)	inside-out patch clamp	10 µM, membrane voltage 20 mV	0.167
ANO1 del476-501	whole-cell voltage clamp	1 µM, wild type, concentration-response at -100 mV, together with: 4 µM Ca2+	-0.742
ANO1 del476-501	whole-cell voltage clamp	10 µM, wild type, concentration-response at 100 mV, together with: 4 µM Ca2+	0.299
Anoctamin-1 (ANO1, Homo sapiens, UniProt Q5XXA6, del476-501/E649A)	inhibitor, inside-out patch clamp	10 µM, E623A mutant at -100 mV	-0.657
ANO1 del476-501	whole-cell voltage clamp	10 µM, wild type, I-V at 20 mV, together with: 4 µM Ca2+	0.0533
